Experimental data from different studies.
Each line is one published result; not all experiments were run side by side. Values joined by “and” are separate records of one study, mostly repeats; a detail may differ.

Structure (SMILES) = COc1ccccc1-c1ccncc1C(=O)Nc1nnc(OCc2ccc(Cl)cc2)s1; cell line = Brca1 Δ11/Δ11 MEFs sgGFP; setting = 10 µM; quantity = colony count; result = 48 and 38 and 25 and 39 and 19 and 21
Structure (SMILES) = Cn1ncc2cc(-c3cncc(Cl)c3N3CCC4(CCNC4=O)CC3)ccc21; cell line = LS174T; assay = gene expression, microarray, item: TIPARP mRNA; setting = concentration not given, 4 h; how to read = relative to: untreated cells; quantity = log2 fold change; result = -1.4
Structure (SMILES) = CC(C)c1ccc(N(C)c2ccc3c(c2)OCC[C@H]3CNc2cnccc2C(=O)O)cc1; cell line = KYSE-150 overexpressing KDM4C; assay = histone demethylation, immunoblot, item: H3K36me3; setting = 24 h; quantity = IC50; result = 85 nM
Structure (SMILES) = COc1cc(N2CCN(C(=O)C3CCCN3)CC2)ccc1Nc1ncc(Cl)c(Nc2ccccc2P(C)(C)=O)n1 (stereo not drawn); cell line = Ba/F3 EML4-ALK; assay = flow cytometry; setting = concentration not given, 3 h; quantity = early apoptotic cells; result = 4.14% and 4.04% and 4.28%
Structure (SMILES) = CCNc1ncc2c(/C=C/C(=O)N3CCC(OC)CC3)nn(Cc3cccc(C(F)(F)F)c3)c2n1; cell line = FLO-1; assay = cell growth or viability, resazurin; setting = 5 days; quantity = EC50; result = 1650 nM
Structure (SMILES) = COc1ccc(CNC[C@](O)(COCc2ccccc2)[C@@H]2CC[C@@H](C)C[C@H]2OCc2ccccc2)cc1; cell line = A2780; assay = cell growth or viability, MTT; setting = 10 µM, 72 h; quantity = inhibition; result = 92.8%
Structure (SMILES) = CCC(=CCc1c(O)cc2c(c1O)C(=O)CC(c1cccc(O)c1OC)O2)CC (stereo not drawn); cell line = HeLa; assay = cell growth or viability, MTT; setting = 12.5 µM, 48 h; quantity = inhibition; result = 26.7%
Structure (SMILES) = CCc1c(-c2ccc3[nH]ncc3c2)cnc(N)c1-c1ccc(O)cc1; cell line = CHP-212 resistant sublines, USP7 V517F heterozygous; setting = 0.3906 µM; quantity = viability; result = 110%
Structure (SMILES) = O=S(=O)(N[C@H]1CCO[C@@H](C2c3ccccc3CCc3ccccc32)C1)c1ccc(OC(F)(F)F)cc1; cell line = D425; assay = immunoblot, item: CIP2A; setting = concentration not given; quantity = protein level; result = decreased
Structure (SMILES) = CC(=O)N1CCC[C@H]1C(=O)N[C@@H](CCC(N)=O)C(=O)N[C@@H](C)C(=O)N[C@@H](CC(=O)O)C(=O)COC(=O)c1c(C)cccc1C; cell line = THP-1 cells, LPS-primed; assay = pyroptosis, LDH release; setting = 25 µM, LPS 1 µg/mL, 4 h, together with: nigericin 5 µM, 2 h; quantity = cell lysis; result = 68.2%
Structure (SMILES) = CN(C12CCCC(C)(CCC3C1CC3(C)C)C2)S(=O)(=O)c1ccc(N)cc1 (stereo not drawn); cell line = HT-29; assay = cell growth or viability, CCK-8; setting = 10 µM; quantity = inhibition; result = < 50%
Structure (SMILES) = CNS(=O)(=O)Nc1nccc(Cc2c(C)c3ccc(Oc4ncccc4F)cc3oc2=O)c1F; cell line = Pfeiffer; assay = cell viability, CellTiter-Glo; setting = 7 days; quantity = IC50; result = > 1000 nM
Structure (SMILES) = O=C(C[Se]C(=O)c1cccnc1Nc1cccc(C(F)(F)F)c1)Nc1cccc(C(F)(F)F)c1; cell line = NCI60 leukemia subpanel; assay = cell growth; setting = 10 µM, 48 h, one-dose; quantity = mean growth percent; result = -95%
Structure (SMILES) = Cc1ccc(S(=O)(=O)NC23CCCC(C)(CCC4C2CC4(C)C)C3)cc1 (stereo not drawn); cell line = HT-29; assay = cell growth or viability, CCK-8; setting = 10 µM; quantity = inhibition; result = < 50%
Structure (SMILES) = CN1CCCNC(=O)c2cccc(c2)C(=O)NCCCN(C)CCCNc2cccc3c2C(=O)c2cccc(c2C3=O)NCCC1; cell line = SAS; assay = RNA-Seq, item: HIKESHI mRNA; setting = 1 µM, 6 h; how to read = relative to: untreated cells; quantity = log2 fold change; result = -0.564
Structure (SMILES) = COc1ccc(C2CC(=O)c3c(cc(O)c(CC=C(C)C)c3O)O2)cc1 (stereo not drawn); cell line = HeLa; assay = cell growth or viability, MTT; setting = 3.125 µM, 48 h; quantity = inhibition; result = 4.62%
Structure (SMILES) = Cc1ncsc1-c1ccc(C(C)NC(=O)C2CC(O)CN2C(=O)C(NC(=O)CCCCCCCCCCN2CCCC(Nc3ncc(Cl)c(Nc4ccccc4S(=O)(=O)C(C)C)n3)C2)C(C)(C)C)cc1 (stereo not drawn); cell line = 22Rv1; assay = RNA-seq, item: ZFP41 mRNA; setting = concentration not given; how to read = relative to: DMSO; quantity = log2 fold change; result = -1.01
Structure (SMILES) = CCN(CC)CC(=O)Nc1cccc(-n2cc(-c3ccc4ccc(-c5cn(-c6cccc(NC(=O)CN(CC)CC)c6)nn5)cc4c3)nn2)c1; cell line = RCC4; assay = PCR angiogenesis array, item: GAPDH; setting = 5 x IC50, 4 h, normoxia; how to read = relative to: untreated; quantity = fold regulation; result = -1.15 fold

Repeated from above:
Structure (SMILES) = Cc1ccc(S(=O)(=O)NC23CCCC(C)(CCC4C2CC4(C)C)C3)cc1 (stereo not drawn); cell line = HT-29; assay = cell growth or viability, CCK-8; setting = 10 µM; quantity = inhibition; result = < 50%
